# Published values from different studies.
# Every numbered part comes from another study and shows a few of its results, in no order. Positions count from the first letter of the parent shown.

# Set 1
# Target: RNA binding protein fox-1 homolog 2, RRM domain, GST-SBP tag (RBFOX2, Homo sapiens, UniProt O43251-10, residues 100-194)
# Method: RNA Bind-n-Seq
# Molecule type: RNA
# Medium: in vitro
# Tested at: 365 nM
# Setting: natural RNA segment, single round, ends assumed
# Reference: no-protein control
# Direction: higher = stronger binding
# All sequences stand within: GGGAGUUCUACAGUCCGACGAUC … UGGAAUUCUCGGGUGCCAA
# Construct (chain): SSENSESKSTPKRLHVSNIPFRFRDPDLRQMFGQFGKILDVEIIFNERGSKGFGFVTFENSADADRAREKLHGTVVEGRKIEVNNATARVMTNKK
Sequence,RBNS enrichment (R)
GUCUGGUGAAAAAAAGAAAAACAAAUUGGAAGAGAGGACCAUGAGAAUUUUAAUAAAACAGAAGGAAACUAAUGGACCUUCCAGGAUUUAUUGUGGACGGAUGUGGAUAU,1.11
UUCCAGCGGUGUCUUGGGUACCGGGCUCUGUGGCUAGAUCGGUUGCUUCAGGAACUUAAUGCCACUCAGUUCAACAUCACAGGUGAAAUCAUGUCUCAGUUCCCAUCUAG,0.37
UUCCUGCCUCCUCCCAAGGGAAGGAAGUGAGAGCAGUGGUCCUCUGGUUCAUUUAGCUGUUUGGCAGAAUUCUUACACUAUCCUCAGCCUCAGUUAUGAAAUGACCAAGA,0.367
GUUGAUUUCUAGGAGCAGCACUGAGCAGCUGGCCAUUGCUAGCACACACCCUUUCCCUCACCUGUACUAGAGCUUGGCUUGAGGAAGGAAUGAAGGAGCAGCCUUCUGUU,0.652
CUGGAACAGUACAUGGAGGCCUGACCUUGUGGGGGCACAGGGUGGAACCUUAGCUGAAUAUAGUGUGUGUCUCAAGAGGAAGUCAGGGUACUAGCUCAGUGCUCAAUCUC,0.56
AUAGGCCAACUGGAGCACUGGUACCCCCACCCUGGUGCGUGUUCACCCACGGGGUCACUUGAGGAAUCUGCCCCACUGCUUCUUGUGAGCAGAUCAGGACCCUUAGGAAA,0.312
UGGUUCCACGCCCCCUUCCGAGCUGACCACUGGAUGCUCUAUGAAUGCGAGAGCCCCUGGGCCGGUGGCUCUCGGGGGCUGGUCCAUGGGCGGCUGUGGCGUCAGGAUGG,2
CUAACGUUUGUCUCUGACAAGAUCAGCUGUAGGCUCACCGGCCAGAGAAGACCACUGUGAGCAUUUUGCCGUAUAUCCUGCCCUGCCAUUUGUUCACUUUUUAAACUAAA,0.379
GUCUGAGAGGAGCAUUUUCCUGGAAGGCCAUCUUUUAAGGCCCCUGCUUGCUGUCAUAGUGCAGAGCAGAAACUUGCACACUAUUUAGAGAGCUCCCUUCCCACCUCUCU,1.04
UCUGGCAUUGGCAAAAAACCAGUAGAAGUGAAUUGUUAGCUGAUGGCCAGGGGGUGUGAUAACAAAUUGUCCUCAAGUAUCCCAUGUAAUUUUUAUUUAAACCCUUGCAC,0.594
AUUUUAUUUGUUUAAUGAUAUGCAUGCUUUUCUUCUGUAAAUAUAUAAUAAAUUUUUGUAGAUAGUCUUGAUGUGUGAUCUUUAUUUUGUAUUUCUCUGUGUAAAACCAG,31.7
UCAUUUCUGAUCAAGUAAAUACACCAGCAGUUGUCAUUCAAUGCAGGUUUUUGUACUUAAUUAUAUGGUGAUUUUUUUACUUUUUAAGAGCAGAAACGGAAAUUGACCUC,0.411

# Set 2
# Target: Interferon regulatory factor 7, full length, phosphomimetic (IRF7, Homo sapiens, UniProt Q92985, residues 1-503, S471D/S472D/S475D/S476D/S477D/S483D/S484D/S487D)
# Sequence of UniProt Q92985 (whole entry, unmodified, looked up): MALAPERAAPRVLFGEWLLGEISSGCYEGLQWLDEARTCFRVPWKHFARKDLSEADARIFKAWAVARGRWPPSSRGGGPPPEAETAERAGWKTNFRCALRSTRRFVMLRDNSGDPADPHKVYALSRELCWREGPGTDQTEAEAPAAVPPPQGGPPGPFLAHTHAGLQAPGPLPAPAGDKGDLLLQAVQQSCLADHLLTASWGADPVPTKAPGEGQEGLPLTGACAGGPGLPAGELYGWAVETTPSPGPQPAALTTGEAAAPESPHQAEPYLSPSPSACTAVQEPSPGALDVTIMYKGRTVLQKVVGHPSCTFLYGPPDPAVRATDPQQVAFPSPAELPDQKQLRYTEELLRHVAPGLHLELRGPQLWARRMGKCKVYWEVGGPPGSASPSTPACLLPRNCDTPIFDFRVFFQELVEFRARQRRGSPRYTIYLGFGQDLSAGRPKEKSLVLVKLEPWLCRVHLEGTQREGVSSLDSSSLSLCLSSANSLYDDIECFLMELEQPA
# Method: protein-binding microarray
# Molecule type: double-stranded DNA, one strand shown
# Medium: in vitro
# Tested at: 2200 nM top
# Setting: 60-bp whole probe
# Together with: salmon DNA 0.4 mg/ml
# Reference: random background probes
# Direction: higher = stronger binding
# All sequences stand within: GCCTAGCAC … GTCTTGATTCGCTTGACGCTGCTG
Sequence,fitted relative affinity
GACGATTTCGGGTTTCGAGAGGTGCTA,4.89 z-score
TCAGGAAACCGGAAAGGCACTGTGCTA,-0.961 z-score
GACGGTTGCGGTTTCGGGACGTGCTAG,4.25 z-score
TTAGGTTCCCTTTTCCTTTCGTGCTAG,4.62 z-score
TTAGGACTGGGTCTCGGTTGGTGCTAG,-0.14 z-score
TTAGGTATCCTGTTCCTTTAGTGCTAG,1.26 z-score
GACTGTCTCCTTATCCTGACGTGCTAG,1.56 z-score
GACGATATCAGTATCGATACGTGCTAG,0.459 z-score
GAGGGTATCGGGTATCGGGACGTGCTA,-0.442 z-score
TTAGGTATAGACTTTCGGTTAGTGCTA,4.82 z-score
TTAGGTATCGGGTATCGGATAGTGCTA,0.36 z-score
GACGGTTTCGGTCTCGGGAAGTGCTAG,6.58 z-score
TTAGGACTGGGTCTTGGTTAGTGCTAG,-0.475 z-score
TTAGGTCTCCGACTGCTTTAGTGCTAG,-0.0428 z-score
GACGGTTTCCTGTTCCTGACGTGCTAG,3.73 z-score
GTGCTTCACAGAGGCGGCTGGTGCTAG,0.247 z-score
TCACAACTCGCCTTTTTTACTGTGCTA,1.28 z-score
TTTTTTTTTTTTTTGGAATGGTGCTAG,1.97 z-score

# Set 3
# Target: RING finger protein unkempt homolog, zinc fingers 1-6, GST-SBP tag (UNK, Homo sapiens, UniProt Q9C0B0, residues 30-357)
# Sequence of UniProt Q9C0B0 (30-357, looked up): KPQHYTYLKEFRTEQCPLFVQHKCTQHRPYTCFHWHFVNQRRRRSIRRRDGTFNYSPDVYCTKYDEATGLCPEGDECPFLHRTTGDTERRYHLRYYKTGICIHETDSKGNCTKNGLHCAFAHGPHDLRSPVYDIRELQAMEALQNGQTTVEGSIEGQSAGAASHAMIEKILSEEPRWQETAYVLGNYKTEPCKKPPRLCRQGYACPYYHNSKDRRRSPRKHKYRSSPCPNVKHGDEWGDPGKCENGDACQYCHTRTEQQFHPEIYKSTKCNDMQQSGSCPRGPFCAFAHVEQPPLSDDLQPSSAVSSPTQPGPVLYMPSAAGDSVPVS
# Method: RNA Bind-n-Seq
# Molecule type: RNA
# Medium: in vitro
# Tested at: not given
# Setting: RNA with constant flanks, human and mouse sites, ends assumed
# Reference: input RNA pool
# Direction: higher = stronger binding
# All sequences stand within: GGGAGUUCUACAGUCCGACGAUC … CAACAGAGGAUUGAGCAUCA
Sequence,bound/input enrichment [ratio]
CCCAUGCCUGGGGUAGCUGGCGGCAGCGGCCAGUCGAAAGUAAUGGCUAACUACAUGUACAAGGCCGGCCCCUCAGCCCAGGGUGGGCACCUAGAUGUCCUCAUGCAGCAAAAGCCUCAG,0.0993
AAUUUAAUGCUGUAGAGGGUGACUUGCCAUCGUGAGAGAUUGGUACAUGAUGUGUAAAUUCAGUUCAGCAUAUGUUUCUUCAUUAUGAAACCACUAGCAAUCCCAGCUAACCAUGGAGUU,0.243
CCACGGAUGUUCAAUAUCAUCUCAGAUUCUCCAUCUCCUAUUGCUGCAAGAACACUGAUAUUAGUGGCUAAAUCUGUGCAGAACUUAGCAAAUCUUGUGGAAUUUGGAGCUAAGGAGCCC,0.187
GACGAGAUCGACGAGUGUGUCCGGAAUAUCGAGCGGUCCCUGUCGGUGGGAAGCGAAUUUUCCAGCGAGCUGGCUGAGAGCGCAUGCGAGGAGAAGCCCAACUUCAACUUCAGCCAGCCC,0.0961
CAGAGCAUAGCGAUUGUUUUUGGCCCCACCCUUCUAAAGCCAGAAAGAGAGACUGGUAAUAUAGCAGUUCAUACUGUGUACCAGAACCAGAUUGUAGAGCUGAUUCUCCUGGAAUUAAGC,0.376
AGCACCAGCGCUGCCACUUGUACCCGCAGACAUUAUGAAAGAUUAAUCCUACCAUAUGAAAGAUUUAUUAAAGGAGAAGAAGAUAAGCCCCUGCCUCCAAUCAAACCUCGGAAACAGGAG,0.416
AAAAGAAACUGGUGUUACCAAGAGGACACCUCAGAAGUUAUUUACCCCUUCGCCAGAGAUUGUGAAAUAUACUCAUAAACUUGCUAUGGAGAGACUCUAUGCAGUUUUUACAGAUUACGA,0.191
CUGUCUGUCCACACCAUGGUCUCCUCAGUCCCCUCCACGCCAGCCCCUCUUCCCCACACCUAGUAGGUGUGCUACACCUCCCUUUGCCAGUCAUCCCGCCAUGGAUGGGGAGCCUACUUG,0.344
AUUUUUUUUUUUAAAUGUGUGUAGACUGUAACUUUCUUUUCAGUUCGUAUGCAGAACAUAUUUAGCCAUUACCCAUGCAACACCACCCGAUAUAUUACUGAUUUAGAAGCAAAGAUUUCA,9.91
GAAGGUUUAGUUGUGAGCUUCAGAUUUUGUGAACUCCAGAUGUUGUGCGGUGUUUUUUUUUUUUUUUAAGACAACAACUAAAAAAAAUGCAAGGAAUAUGUACACUGGAACUGUAGUGGU,0.401
UCCACGGAUGUUUAAUAUCAUCUCAGAUUCCCCAUCUCCUAUUGCUGCAAGAACACUGACAUUAGUGGCUAAAUCUGUGCAGAAUUUAGCAAAUCUUGUGGAAUUUGGAGCUAAGGAGCC,0.0852

# Set 4
# Target: CCNB2, cyclin fold, Cln2 fusion (human)
# Method: yeast growth competition, sequencing
# Medium: yeast
# Setting: strong parent motif
# Reference: not given
# Direction: higher = stronger binding
# Starting sequence: E2F1 docking peptide (human); PPVKRRLDFETDH
Change,normalised enrichment score
PPVKGRLDFETDH [R5G],0.56
PRVKRRLDFETDH [P2R],3.15
PPVQRRLDFETDH [K4Q],2.69
PPVKRRLDFETFH [D12F],3.25
PPVKRTLDFETDH [R6T],2.48
PPVKRRLDFEFDH [T11F],4.46
PPVPRRLDFETDH [K4P],1.04
PPDKRRLDFETDH [V3D],-0.139
PPVFRRLDFETDH [K4F],0.851
PPVKRRDDFETDH [L7D],-0.171
PPVKRRLAFETDH [D8A],1.89
PPVKRRLDFEVDH [T11V],3.38
PPVKRRLRFETDH [D8R],1.75
PPVKRRLDFENDH [T11N],3.98
PPVKRRLNFETDH [D8N],3.54
PPVKRRLDFETNH [D12N],3.43
PPVKRRLDFETEH [D12E],4.29
PPVKRRLDFEDDH [T11D],4.71
PPVKRRNDFETDH [L7N],0.301

# Set 5
# Target: Histone acetyltransferase KAT6A, both winged helices, GST fusion (KAT6A, Homo sapiens, UniProt Q92794, residues 1-181)
# Method: protein binding microarray
# Molecule type: double-stranded DNA, one strand shown
# Medium: in vitro
# Tested at: not given
# Setting: 8-mer, flanks averaged, mean of 2 arrays, mostly near background
# Reference: not given
# Direction: higher = stronger binding
# Target sequence (chain): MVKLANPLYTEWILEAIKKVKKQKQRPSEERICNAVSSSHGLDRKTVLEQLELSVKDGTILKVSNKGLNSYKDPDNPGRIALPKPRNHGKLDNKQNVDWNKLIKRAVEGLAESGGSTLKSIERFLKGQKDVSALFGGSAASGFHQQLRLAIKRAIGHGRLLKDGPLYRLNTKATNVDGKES
Sequence,E-score
CGGATCGC,0.193
CAGGGGGA,-0.245
CGAAGCTC,-0.0636
GACAACTA,-0.139
ACTTGTGA,-0.0548
CGTTACAG,-0.0614
AATGTGTA,-0.116
AGTTAATA,-0.0212
AAGTCGGG,0.0381
AGACTCCC,-0.143
GTAGTTGA,-0.098
TCAAAAAA,-0.0704
CTGATAAA,-0.138
AACCTCGG,0.054
GCCCTCGA,-0.138
TAAAGGCA,-0.193
AGTGCTTG,-0.0188
ACTAAGTA,-0.102
AGCTACCA,-0.25
ATTGAAAC,-0.0778
AACGCGAG,0.117

# A few entries again (set 5):
Sequence,E-score
ACTTGTGA,-0.0548
CGTTACAG,-0.0614
AATGTGTA,-0.116
AGTTAATA,-0.0212
AAGTCGGG,0.0381
AGACTCCC,-0.143
GTAGTTGA,-0.098
TCAAAAAA,-0.0704
CTGATAAA,-0.138
AACCTCGG,0.054
